Published values pooled from the literature.
Numbered parts are unrelated; each lists some results of a single study. Substitutions count along the parent as printed.

Sample 1 — technique: protein binding microarray; form: double-stranded DNA, one strand shown; sample: in vitro; tested at: not given; reference: not given; reading: higher = stronger binding; endpoint: E-score
Target: Histone acetyltransferase KAT6A, winged helix 1, GST fusion (KAT6A, Homo sapiens, UniProt Q92794, residues 1-85)
Setting: 8-mer, flanks averaged, mean of 2 arrays, mostly near background
Construct (chain): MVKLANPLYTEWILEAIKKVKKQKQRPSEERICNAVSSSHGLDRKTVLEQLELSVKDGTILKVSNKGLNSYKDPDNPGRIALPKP
GGCCGTAA: 0.371
CTCCCGCC: 0.357
CCGTGCGC: 0.414
GAGCTTAA: -0.209
CAGTACAC: -0.07
CGTATGGA: 0.031
AGAACACC: 0.00628
AAATTGGT: -0.139
TCCAGAAA: -0.192
AACGCAGT: 0.0265
ACTCACGG: 0.304
AATCCCAG: -0.257
CACCCTCG: -0.119
CTCGTCGC: 0.0955
AAGTGTGT: -0.135
AGATCGCA: -0.0881
AATCATGC: -0.00427
TATTCAGA: -0.077
ACCGGCAT: 0.319
CACTCTCG: -0.0153

Sample 2 — technique: protein-binding microarray; form: double-stranded DNA, one strand shown; sample: in vitro; tested at: not given; reading: higher = stronger binding; endpoint: E-score
Target: Hepatocyte nuclear factor 3-beta, forkhead domain (FOXA2, Homo sapiens, UniProt Q9Y261, residues 142-269)
Setting: k-mer, scored over probes, only values ≥0.25
Residues (chain): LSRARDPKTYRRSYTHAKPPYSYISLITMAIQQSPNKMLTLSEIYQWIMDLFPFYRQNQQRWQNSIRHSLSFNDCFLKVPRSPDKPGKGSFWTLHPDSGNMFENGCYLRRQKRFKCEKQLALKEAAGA
AATCGTAG: 0.255
ATTTAATC: 0.294
AACAATAA: 0.356
ACATTTTA: 0.273
GCAAATAC: 0.253
ATGACAAT: 0.322
TATGAATA: 0.326
GATACAAC: 0.277
CATGACAC: 0.251
GCACAACA: 0.267
AAACGTAA: 0.268
ATTATATG: 0.27
GATGTGAA: 0.275
AATACAAG: 0.314
AAACAGTA: 0.285
TTATTGAA: 0.315
ATGGTACA: 0.255

Sample 3 — technique: RNA Bind-n-Seq; form: RNA; sample: in vitro; tested at: 365 nM; reference: no-protein control; reading: higher = stronger binding; endpoint: RBNS enrichment (R)
Target: RNA binding protein fox-1 homolog 2, RRM domain, GST-SBP tag (RBFOX2, Homo sapiens, UniProt O43251-10, residues 100-194)
Setting: natural RNA segment, single round, ends assumed
Residues (chain): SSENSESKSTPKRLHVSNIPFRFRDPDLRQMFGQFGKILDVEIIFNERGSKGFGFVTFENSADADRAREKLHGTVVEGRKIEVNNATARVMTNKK
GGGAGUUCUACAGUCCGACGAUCUUUCUCUUUGGAAAGACUCAGGCUGUGGUUUGUUGAUGGCCAGGUUUUCCUCAGGCUCCAACAACUGUGCUUAUACCAAGCAGAUCCUCAUCCUCCAUAUAAUCAUCUUUUGGAAUUCUCGGGUGCCAA: 0.252
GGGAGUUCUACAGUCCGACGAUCGAAGCUCUCCAUACUGAAGUACCAGAUGCAGCCCAAGUGAAUUUCCUGUAAUGCUGCUGCCCCUCCUUCCUGGGCAGCUCUACUGGGGAGAUGAGAAGCUCUUGAUCCAAUGGAAUUCUCGGGUGCCAA: 0.294
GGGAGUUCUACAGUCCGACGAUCUGGAGACUCUAGCUGGAGCAGUUGGCUCCUAUUGGCUGUGUUUGCCUGUCUGUCUUCCUGUCACGUGGAUCCUUGGUUCUUUCCCGGCCAUUCCAUUCCCAGGGAGUGAGUGGAAUUCUCGGGUGCCAA: 1.08
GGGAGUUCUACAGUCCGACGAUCGAACCUGACAGGACGCUGAAGAUGUGCGGGCAGUUGUGCACCGUCAGUGAGGGAGAGAGACCCCGACUCCAUUUGUACUUCUUUCUUGACACUCUUCUCAGCUUAUAAAAUGGAAUUCUCGGGUGCCAA: 0.84
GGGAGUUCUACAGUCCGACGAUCCUCGUUUGAGCCUGAAGCACUGGGCAACCUGGUUGAAGGGAUGGACUUCCACAGAUUCUACUUCGAGAACGUGCUGGCCAAGAACAGCAAGCCGAUCCACACGACCAUCCUGGAAUUCUCGGGUGCCAA: 0.428
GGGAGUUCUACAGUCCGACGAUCGCAGCUUGGGCUGACCCAGCAUCUCUGCAAGAUUUCCACCUGCUGGGCUGCCAGAGAGGUUUGUAGCCCGGCCCUGACUGCAUCCUCCCCAUCCCUGGGGCAACAUUCCCUGGAAUUCUCGGGUGCCAA: 0.857
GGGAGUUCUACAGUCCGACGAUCCAGGCGGAUCACCUGAGGCCAGGAAUUCAAGACCAGCCUGGCCAACAUGGUGAAACCCUAUCUCCACUAAAAAUACAAAAUUAGCUGGGUGUGGUGGCGCAUGCCUGUAAUGGAAUUCUCGGGUGCCAA: 0.811
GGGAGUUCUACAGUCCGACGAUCAAAUGAGCAGAGGCCUGUAGGUAGCACCUGAGGGUCCAGGGAGGUAUAUGGACAGGCCUGCAUCACAGCAUCCUAGACUUCUUUGGAGACCCGUUUGAUAGUACUUUCAGUGGAAUUCUCGGGUGCCAA: 0.735
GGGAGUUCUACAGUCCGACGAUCGUCUCUGAUGAGUUAUGCUAAGUUCUAGUCUGAUUAUCCUCCUGGUUCCAUUUAAGGCCCUCAGAGAUCAAUGCAAUUAGCCUAGCUUCCCCUUUGUUUAGGCAUCACUUUGGAAUUCUCGGGUGCCAA: 0.397
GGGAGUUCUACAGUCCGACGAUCGUAUAUGUAAAGUGAUAUUUCGCUCUACAAGUUUGGCCUUAAUUAAACUCAUGAAUUAUAGGCAUUUUUAAUUUUUUGUAGACUAUGAACCCUGGCUGAUAUUGAAGUCAUGGAAUUCUCGGGUGCCAA: 0.579
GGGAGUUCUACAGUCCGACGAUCGUUGCCAGGCGCAGAGGGGAGGCCAGCCCUGCCCUCAGGACCUGCCUGACCUGCCAGUGAUGCCAAGAGGGGGAUCAAGCACUGGCCUCUGCCCCUCCUCCUUCCAGCACUGGAAUUCUCGGGUGCCAA: 0.285
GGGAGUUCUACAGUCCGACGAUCGUAUGUUUUGCAAAAAUCAGUCCACUUAGCAAACUAAUCUUUGUAAAGCAGUCAGUUUCAGAAGAUACUUUUUAUCAAAAAAGAUGGCAGGUUUAACAUUAUACCUUUUGUGGAAUUCUCGGGUGCCAA: 0.309

Sample 4 — target: CRIPT, C-terminal peptide; technique: DHFR complementation, deep sequencing; sample: yeast; reference: wild type; reading: higher = weaker binding; endpoint: binding free energy change
Setting: single substitutions, model-inferred values
Starting sequence: ERBIN, PDZ domain 1 (human); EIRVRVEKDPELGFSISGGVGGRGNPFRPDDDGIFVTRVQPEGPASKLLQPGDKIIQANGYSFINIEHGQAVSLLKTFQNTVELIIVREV; partner TKNYKQTSV
S46V: 0.105 kcal/mol
I34P: 0.6 kcal/mol
V82R: 1.62 kcal/mol
V4T: 0.351 kcal/mol
A45V: 0.659 kcal/mol
E7S: 0.0991 kcal/mol
D53Y: 0.628 kcal/mol
S15P: 0.426 kcal/mol
R38W: 0.431 kcal/mol
R28W: 0.0199 kcal/mol
V4F: 0.0198 kcal/mol
V36T: 0.724 kcal/mol
Q57N: 0.0685 kcal/mol
L49T: -0.0555 kcal/mol
L49H: 1.35 kcal/mol
Y61A: -0.0538 kcal/mol
I16T: 1.4 kcal/mol
G60A: 0.117 kcal/mol
L74S: 0.17 kcal/mol

Sample 5 — technique: protein-binding microarray; form: double-stranded DNA, one strand shown; sample: in vitro; tested at: 250 nM; setting: 60-bp whole probe; with: salmon DNA 0.4 mg/ml; reference: random background probes; reading: higher = stronger binding; endpoint: log fluorescence; all sequences stand within: GCCTAGCAC … GTCTTGATTCGCTTGACGCTGCTG
Target: Interferon regulatory factor 5, full length, phosphomimetic (IRF5, Homo sapiens, UniProt Q13568-2, residues 1-514, K96S/S451D/S453D/S456D/S462D)
TGAGATCTCAGACTGGATTAGTGCTAG: -0.355 z-score
ATAGATATCGGGTTTCGATTAGTGCTA: 7.86 z-score
GACGGTATTGACACTGGGGACGTGCTA: 0.171 z-score
TCATTTTTCCGAGTGAGACTGTGCTAG: 0.653 z-score
TCAGGTATCGGGACTGGGTTAGTGCTA: 1.5 z-score
TTAGCTCTCAGACTGGATTAGTGCTAG: -0.107 z-score
GACGGTATCGATTTTCGGGACGTGCTA: 5.38 z-score
TTAGATCTCAGACCGGATTAGTGCTAG: -0.0172 z-score
TCACCTCTCTGTCCCCCTTTGTGCTAG: 0.262 z-score
GACGGTTTCGACTCTCGGGACGTGCTA: 5.36 z-score
GTCGGTATCGACTTTCGGGACGTGCTA: 7.46 z-score
GTAGAACTGGGGTTTCGATTAGTGCTA: 5.64 z-score
GACGGACTGGACCTTCGGGACGTGCTA: -0.521 z-score
TTAGGACTGGACCTTCGGTTAGTGCTA: 0.522 z-score
TTACGTATCGACACTGGGTTAGTGCTA: 3.36 z-score
ACAAGTTTCTCCTTTCCAAAGTGCTAG: 3.21 z-score
GACGGTTTCCTTATCCAGACGTGCTAG: 0.757 z-score
TTAGGTTTCGACTATCGATTAGTGCTA: 9.18 z-score
TAAGGTTTCGGGACTGGGTTAGTGCTA: 3.89 z-score
TCATCATTCCAATTCTTACTGTGCTAG: 0.896 z-score
TCAAAAATGATGTTTTAGACTGTGCTA: 0.435 z-score
TTAGATTTCGGAACTGGATTAGTGCTA: 2.89 z-score
GACGGACTGCCTATCCTGACGTGCTAG: -0.439 z-score
CTTTCTGTCAGTTTTGAGCTGTGCTAG: 5.26 z-score

Single results of other studies
PhoQ, residues 284 288 289 292 302 303 ALAMYF — fold induction (PhoP, residues 12 14 15 18 19 LHTVM (Escherichia coli, UniProt P23836); Sort-seq, measured: YFP reporter; E. coli; PhoQ-PhoP variant library, with: 10 µM Mg2+; reference: high Mg2+ state, higher = stronger signaling): 3.58

For quick reference, copied from above (sample 4):
I34P: 0.6 kcal/mol
V82R: 1.62 kcal/mol
V4T: 0.351 kcal/mol
A45V: 0.659 kcal/mol
E7S: 0.0991 kcal/mol
D53Y: 0.628 kcal/mol
S15P: 0.426 kcal/mol
